Published values of several laboratories.
Each numbered part is a random draw from the data of one study; scales do not carry over between parts. Substitutions count along the parent as printed.

Sample 1
Target: ABI1, truncated, D143A, DHFR fusion (Arabidopsis thaliana)
Technique: DHFR PCA, deep sequencing
Medium: yeast
Notes: methotrexate growth selection, single substitutions
With: (+)-ABA 4.8 µM
Relative to: wild-type fitted maximum
Reading: higher = stronger binding
Quantity: relative binding score
Starting sequence: PYL1, truncated, DHFR fusion (Arabidopsis thaliana); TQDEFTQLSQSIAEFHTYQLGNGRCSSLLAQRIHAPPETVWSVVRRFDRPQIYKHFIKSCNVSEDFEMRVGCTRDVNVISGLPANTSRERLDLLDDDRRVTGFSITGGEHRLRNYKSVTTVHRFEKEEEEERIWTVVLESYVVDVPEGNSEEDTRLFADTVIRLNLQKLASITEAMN
R45D: -2.1%
S104T: 73.8%
T39M: 72.8%
V40W: 8%
V118Q: 17.4%
L29Q: 29.1%
T135V: -0.00712%
S87E: -3.38%
V121T: -6.19%
V118M: 53%
S104W: -16%
N77V: 78.6%
S87K: -7.92%
H55F: 61.1%
T106F: 73.6%
R24V: 61.1%
N114V: -14.5%
I79S: 46.2%
P146C: 8.21%
E151M: 61.5%
R113L: 50.4%
Q31S: -8.36%
Y141P: -1.12%

Sample 2
Target: Interferon regulatory factor 3, full length, phosphomimetic (IRF3, Homo sapiens, UniProt Q14653, residues 1-427, S386D/S396D/S398D/S402D/T404D/S405D)
Technique: protein-binding microarray
Molecule type: double-stranded DNA, one strand shown
Medium: in vitro
Concentration: 2540 nM top
Notes: 60-bp whole probe
With: salmon DNA 0.4 mg/ml
Relative to: random background probes
Reading: higher = stronger binding
Quantity: fitted relative affinity
Shared flanks, not repeated: GCCTAGCAC … GTCTTGATTCGCTTGACGCTGCTG
Target sequence (chain): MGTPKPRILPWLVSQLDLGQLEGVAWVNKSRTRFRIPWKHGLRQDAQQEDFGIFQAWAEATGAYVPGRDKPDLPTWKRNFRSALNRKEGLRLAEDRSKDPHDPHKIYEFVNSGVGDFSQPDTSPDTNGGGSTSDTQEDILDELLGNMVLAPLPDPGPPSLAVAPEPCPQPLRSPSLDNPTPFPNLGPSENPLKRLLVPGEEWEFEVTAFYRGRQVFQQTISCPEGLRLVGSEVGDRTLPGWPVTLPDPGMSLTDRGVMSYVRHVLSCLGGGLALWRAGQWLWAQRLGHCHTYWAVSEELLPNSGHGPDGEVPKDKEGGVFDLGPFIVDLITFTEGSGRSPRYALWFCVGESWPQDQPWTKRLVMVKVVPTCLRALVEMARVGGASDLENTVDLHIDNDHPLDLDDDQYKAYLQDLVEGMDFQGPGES
GAATGTGTCTTAAATAGGGCAGTGCTA: 0.496 z-score
GACGGTATCGGGTTTCGGGTCGTGCTA: 3.19 z-score
GAGGGTTCCCTTTTCCTGACGTGCTAG: 5.85 z-score
TTAGGTTCCCTTTTCCTTTGGTGCTAG: 7.46 z-score
TTAGGACTGATTTTCCTTTAGTGCTAG: 1.62 z-score
TCATGGTCCTCTCTCTAACTGTGCTAG: 0.117 z-score
TGATCTTCCTTCATGGCCTGGTGCTAG: 0.51 z-score
GACGGTTTGCTTATCCTGACGTGCTAG: 1.07 z-score
TTAGGACTGGGAATGGGTTAGTGCTAG: -0.601 z-score
CACAGAACATATTAGTATATGTGCTAG: 0.567 z-score
TCAGCTCTCTGGACTGTGACTGTGCTA: -0.137 z-score
TTGGGTTTCGACTATCGGTTAGTGCTA: 1.43 z-score
TCAAGTCTAGCCATTGTGACTGTGCTA: -0.892 z-score
GACGGTCTCCTATTCCTGACGTGCTAG: 2.3 z-score
AACATACTCGTTTACATTTTGTGCTAG: 1.4 z-score
TAGTTTCTAAAACTCTTTATGTGCTAG: 2.17 z-score
TTATGTCTCGGTATCGGTTAGTGCTAG: 2.57 z-score
TTAGAACTGAGACTGGATAAGTGCTAG: -0.242 z-score
AGCTTTCCCAACATCAGAGCGTGCTAG: 3.71 z-score
GACGGACTGGGGACTGGGGAGGTGCTA: -0.885 z-score
TTAGGACTGGACTTTCGGTTAGTGCTA: 0.931 z-score
GACGAACTGAGCATCGAGACGTGCTAG: -0.201 z-score
ATAGATCTCAGTTTCGATTAGTGCTAG: 3.93 z-score
GACGGTATCGACGTTCGGGACGTGCTA: 0.249 z-score
GACGGACTGGGGACTAGGGACGTGCTA: -0.72 z-score

Sample 3
Target: Sal-like protein 4, full length isoform A (SALL4, Homo sapiens, UniProt Q9UJQ4, residues 1-1053)
Sequence of UniProt Q9UJQ4 (whole entry, looked up): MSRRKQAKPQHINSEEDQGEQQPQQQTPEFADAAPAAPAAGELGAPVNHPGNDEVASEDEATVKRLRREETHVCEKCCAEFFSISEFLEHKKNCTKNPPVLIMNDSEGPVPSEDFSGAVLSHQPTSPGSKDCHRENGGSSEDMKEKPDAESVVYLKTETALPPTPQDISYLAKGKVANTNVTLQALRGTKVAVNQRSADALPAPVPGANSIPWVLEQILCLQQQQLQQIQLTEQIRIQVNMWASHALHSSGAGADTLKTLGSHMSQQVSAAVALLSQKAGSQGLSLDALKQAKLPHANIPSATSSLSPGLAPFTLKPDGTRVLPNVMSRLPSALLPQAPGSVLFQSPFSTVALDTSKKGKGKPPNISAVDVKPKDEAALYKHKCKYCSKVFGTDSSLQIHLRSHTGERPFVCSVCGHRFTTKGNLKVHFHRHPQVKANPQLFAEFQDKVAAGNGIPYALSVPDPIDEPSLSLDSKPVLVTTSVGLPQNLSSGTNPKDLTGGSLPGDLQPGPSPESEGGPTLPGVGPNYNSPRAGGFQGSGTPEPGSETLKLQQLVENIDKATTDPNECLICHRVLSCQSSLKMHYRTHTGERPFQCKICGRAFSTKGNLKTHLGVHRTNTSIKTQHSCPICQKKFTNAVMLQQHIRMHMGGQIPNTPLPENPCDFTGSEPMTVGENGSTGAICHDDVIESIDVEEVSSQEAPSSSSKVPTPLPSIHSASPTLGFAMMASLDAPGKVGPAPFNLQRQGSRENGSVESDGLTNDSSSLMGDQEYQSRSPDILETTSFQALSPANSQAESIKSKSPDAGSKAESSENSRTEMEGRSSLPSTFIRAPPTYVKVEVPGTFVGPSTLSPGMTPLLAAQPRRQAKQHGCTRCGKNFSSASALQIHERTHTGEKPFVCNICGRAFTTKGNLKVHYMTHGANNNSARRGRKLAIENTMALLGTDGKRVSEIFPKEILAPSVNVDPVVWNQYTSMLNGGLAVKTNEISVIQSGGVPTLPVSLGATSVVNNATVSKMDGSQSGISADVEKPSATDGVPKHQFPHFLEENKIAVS
Technique: universal PBM
Molecule type: double-stranded DNA, one strand shown
Medium: in vitro
Concentration: 600 nM
Notes: 8-mer, flanks averaged, mean of replicates
Reading: higher = stronger binding
Quantity: E-score
TTCTCCAA: 0.106
TCCGCACA: -0.0433
TATCGTGA: 0.125
GAGTAGGC: -0.204
ACGAGTCC: -0.135
TATCCACA: 0.158
AGCTAAGC: -0.271
CGCGCTTA: -0.162
TACGTGAA: 0.0988
GTGGCCAA: -0.225
CTCTACCC: -0.142
GGAGGCCC: -0.414
CTCTCGTA: 0.0147
AATGCTTC: 0.0582
AACCTGAT: 0.131
AATCGGAA: 0.0729
AAGCCTAG: -0.114
ACAGTCAC: -0.0586
CGTGCAGA: -0.078
AGCGTTTG: -0.119
GCCTCGAC: -0.184
ATTCAGCA: 0.12

Sample 4
Target: CCNE2, cyclin fold, Cln2 fusion (human)
Technique: yeast growth competition, sequencing
Medium: yeast
Notes: weak parent motif
Relative to: not given
Reading: higher = stronger binding
Quantity: normalised enrichment score
Starting sequence: PKMYT1 docking peptide (human); SFEPRNLLSLFED
SFEYRNLLSLFED [P4Y]: -0.467
SCEPRNLLSLFED [F2C]: 0.257
SFEPRNLLSLHED [F11H]: -0.153
SFEPRNLLSEFED [L10E]: 0.339
SPEPRNLLSLFED [F2P]: -0.197
SFEPRNLLSPFED [L10P]: -0.182
SFEARNLLSLFED [P4A]: 0.00675
SFEPRNLLSLFGD [E12G]: 0.0405
KFEPRNLLSLFED [S1K]: -0.0342
IFEPRNLLSLFED [S1I]: -0.301
SFHPRNLLSLFED [E3H]: 0.811
SFEPRNLLSLFCD [E12C]: 0.502
SFEPENLLSLFED [R5E]: 0.891
SFEPRNLLSLFFD [E12F]: 0.233
SFMPRNLLSLFED [E3M]: 0.758
SFEPFNLLSLFED [R5F]: -0.457

Sample 5
Target: RING finger protein unkempt homolog, zinc fingers 1-6, GST-SBP tag (UNK, Homo sapiens, UniProt Q9C0B0, residues 30-357)
Sequence of UniProt Q9C0B0 (30-357, looked up): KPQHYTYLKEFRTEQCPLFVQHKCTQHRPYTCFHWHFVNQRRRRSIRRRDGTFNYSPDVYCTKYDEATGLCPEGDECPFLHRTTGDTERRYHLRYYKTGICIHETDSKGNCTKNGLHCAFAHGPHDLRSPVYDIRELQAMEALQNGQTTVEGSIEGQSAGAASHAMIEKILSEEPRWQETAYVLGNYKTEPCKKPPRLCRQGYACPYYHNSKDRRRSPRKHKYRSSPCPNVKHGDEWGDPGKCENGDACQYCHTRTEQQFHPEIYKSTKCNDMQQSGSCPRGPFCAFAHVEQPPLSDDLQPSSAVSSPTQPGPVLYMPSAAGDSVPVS
Technique: RNA Bind-n-Seq
Molecule type: RNA
Medium: in vitro
Concentration: not given
Notes: RNA with constant flanks, human and mouse sites, ends assumed
Relative to: input RNA pool
Reading: higher = stronger binding
Quantity: bound/input enrichment
Shared flanks, not repeated: GGGAGUUCUACAGUCCGACGAUC … CAACAGAGGAUUGAGCAUCA
CUGCCCUUUCAGGACUGCGUCGUACAGACCCCGCAGGGGCAGGACUAUGCGGGCAAGUGCUAUGCGGGGAAGCAGAUCACCGGUGUGUCCAUUCUGCGCGCCGGUGAAACCAUGGAGCCC: 0.0758 ratio
CUGUGCGACUAUUCUCCGGGAGCCGUCCGUGUCACCGCCGGAACCUGGCGCAGGUUAAUUAUAGAAAAUGCCAAGUAGGAAAUUUGCCGAUGGUGAAGUGGUAAGAGGUCGAUGGCCUGG: 0.952 ratio
GAAGUCAUUGUAUUUGAUUGGACAGAUUUUUGCCAAUACCUAUUUCUUUCUAUAAAUAAUGGAUUUUUAAAAAAAACAAAAACAAAAACAUACUCAUUGCAUGGCUCCUGGACCCGUCUU: 0.58 ratio
CUCAGCCUGGGCGGCAACCAGCUGCAGAGCAUCCCCGCCGAGAUCGAGAACUUGCGGAGUUUAGAAUGUUUAUACCUUGGAGGAAACUUCAUUAAAGAAAUCCCACCAGAAUUAGCAAAU: 2.41 ratio
CUAAGCUCAGCUAAUGGAAGAAGAGUCUAGUUUCUUUGAGGCUUUGAUUUUGGUUAAACUAUAGAGCUCAUACCUUUCUGUAUGGUGCAGCUUACUAUUGUCUUUGGAUUGGUAACUUAA: 0.141 ratio
GUUUACAUCUUUGGUGAUGGACGAGGCCUUAUUGAAGGAAAUGACAUUUAUGGCAAUGCAUUAGCAGGAAUUCAAAUUAGGACAAACAGUUGUCCAAUUGUUCGGCAUAACAAAAUUCAU: 0.173 ratio
GGACAGAACAGUAAACUAAGCAGACUGUGACCAUUGGCCUCCCACUAGCCAGGAUCAACUUAGCUCUCCUUUUGUGGUCCAUGUGCUGCAUCGUCUGCCAUCAGUGUGCAACCGGCCCCC: 3.61 ratio
AUUAUUCUAUAUUUAAACUGUUGGUCAGAAAAUGAUCUGCAAUUCAAGUAAGUCUGCAUUACUUUUUUCUUUAAAAAGUACUUUAACAUGCCUUAUUUAUUAUAUUAGCAAAUGAGCUAA: 0.537 ratio
AGCUGCCCCUGCCCACCUGCCCUGGUGUGGGGGUCCCUAGGCCACACCCUGCUCCCCACCCAGCUACCCUGUGCGCCUGUGCCCUGCUGGGGGCCUGGGCUCUCCGAGGGGCCUGAGGAU: 0.121 ratio
CUCGAGAGGAACCAGGACAUGAGCCGGCAGUACGAGCAGAUGCACAAGGAGCUGACGGACAAGCUAGAGCACCUAGAACAAGAGAAACAUGAACUGAGAAGGCGAUUCGAGAAUCGAGAA: 0.0936 ratio
GUAUCUAAAUGUUCUGAGGAAAUAAAGAACUACAUUGAAGAACGUUCUGGAGAGGAUCCUCUGGUAAAGGGAAUCCCAGAAGACAAGAAUCCCUUCAAAGAAAAGGGCAGCUGUGUCAUU: 0.147 ratio

For quick reference, copied from above (sample 1):
T39M: 72.8%
V40W: 8%
V118Q: 17.4%
L29Q: 29.1%
T135V: -0.00712%
S87E: -3.38%
V121T: -6.19%
V118M: 53%
S104W: -16%
N77V: 78.6%
S87K: -7.92%
H55F: 61.1%
T106F: 73.6%
